{"data": "Measurements pooled from the literature", "note": "Each numbered part is a random draw from the data of one study; scales do not carry over between parts.", "sequence of UniProt O00506 (whole entry, looked up)": "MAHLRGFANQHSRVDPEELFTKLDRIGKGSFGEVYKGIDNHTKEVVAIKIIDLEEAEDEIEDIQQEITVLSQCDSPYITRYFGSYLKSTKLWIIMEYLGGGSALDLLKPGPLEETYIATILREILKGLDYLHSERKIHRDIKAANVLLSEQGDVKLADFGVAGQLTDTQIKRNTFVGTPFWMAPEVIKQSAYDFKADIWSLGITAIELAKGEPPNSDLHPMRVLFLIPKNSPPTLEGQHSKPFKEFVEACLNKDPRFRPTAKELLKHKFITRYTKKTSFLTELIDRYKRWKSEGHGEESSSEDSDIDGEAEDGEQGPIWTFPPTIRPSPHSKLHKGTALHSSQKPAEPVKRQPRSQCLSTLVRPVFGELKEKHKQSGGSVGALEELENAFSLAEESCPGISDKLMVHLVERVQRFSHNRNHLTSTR"}
{"data": "Sample 1", "target": "RNA binding protein fox-1 homolog 2, RRM domain, GST-SBP tag (RBFOX2, Homo sapiens, UniProt O43251-10, residues 100-194)", "method": "RNA Bind-n-Seq", "molecule type": "RNA", "matrix": "in vitro", "tested at": "365 nM", "notes": "natural RNA segment, single round, ends assumed", "relative to": "no-protein control", "reading": "higher = stronger binding", "shared flanks, not repeated": "GGGAGUUCUACAGUCCGACGAUC … UGGAAUUCUCGGGUGCCAA", "Construct (chain)": "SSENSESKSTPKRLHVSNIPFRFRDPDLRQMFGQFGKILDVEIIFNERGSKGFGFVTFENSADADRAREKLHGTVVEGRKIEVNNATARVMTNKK"}
{"Strand": "CACACCACAGAAAAGCACAACCCUCUGGGGAGGAGACCAUCCCUCAAGGCCGGGGGUCGUGGCUUUGGCCUCUGACUUCUAAGCCAAGAUGCCCUGUAAACACUCUCUCA", "RBNS enrichment (R)": 0.258}
{"Strand": "CUUUUGGGGGUUAUUCUACCAACAAACAGUCCAUUGGAAAGAAAACAGUCCCUGGAAUUAACAGAUCAGAAUGUUCACACUGGUUAAUCUUUUUUUAACAAUGAGCAUGA", "RBNS enrichment (R)": 0.398}
{"Strand": "CCCAGUAUGCUGUGUAUGCAGCAGGGACUCUUUUCCCCACAUGCCAGGAUGACUUGGAUCUGGGAAGGGCGUGUCAUCUCAGUUUGUUCCUCCCGCACCCCUCCUCCCCC", "RBNS enrichment (R)": 0.423}
{"Strand": "UUGUCAUUCUUUGUUGCCCCUUUUCUGUCACCAGCCAACCACAUAGCCUUGGGACCAGCCUCUCUGGGGGACCAGAAGUAGUGAGAGAAGGAAGGGGAUAGGCAGCUUUG", "RBNS enrichment (R)": 0.323}
{"Strand": "AGGCUAUGUACCUCGAAGGGAGGGCCUGGGGGACAAUGUUACCGAGAGGAGAAUGUGAGCACAUUUGACUGACACGGCCUGGAACCCAGUGCAUCUUUUCACGGCACUGC", "RBNS enrichment (R)": 4.38}
{"Strand": "UGCCUAGAUCCACGUGUGGCCUCCGUCCUGUCACUGAUGGAAGGUUUGCGGAUGAGGGCAUGUGCGGCUGAACUGAGAAGGCAGGCCUCCGUCUUCCCAGCGGUUCCUGU", "RBNS enrichment (R)": 0.283}
{"Strand": "GGAGGACAGCUAAAUGGACAGUCAGUCACUUUGAGGUCACUGCAUUUGACUGGAAAUGUAUAAUGUGUUUUACUGUUGAAAAAAAUAUGAGCUCUGUUUCAACUAACGUG", "RBNS enrichment (R)": 0.855}
{"Strand": "UCCCAAGAUCCUGGGGAAAGGAGAGACCAUGGUGUGAAUGUAGAGAUGCCACCUCCCUCUCUCUGAGGCAGGCCUGUGGAUGAAGGAGGAGGGUCAGGGCUGGCCUUCCU", "RBNS enrichment (R)": 1.1}
{"data": "Sample 2", "target": "RING finger protein unkempt homolog, zinc fingers 1-6, GST-SBP tag (UNK, Homo sapiens, UniProt Q9C0B0, residues 30-357)", "method": "RNA Bind-n-Seq", "molecule type": "RNA", "matrix": "in vitro", "tested at": "not given", "notes": "RNA with constant flanks, ends assumed", "relative to": "input RNA pool", "reading": "higher = stronger binding", "shared flanks, not repeated": "GGGAGUUCUACAGUCCGACGAUC … CAACAGAGGAUUGAGCAUCA", "sequence of UniProt Q9C0B0 (30-357, looked up)": "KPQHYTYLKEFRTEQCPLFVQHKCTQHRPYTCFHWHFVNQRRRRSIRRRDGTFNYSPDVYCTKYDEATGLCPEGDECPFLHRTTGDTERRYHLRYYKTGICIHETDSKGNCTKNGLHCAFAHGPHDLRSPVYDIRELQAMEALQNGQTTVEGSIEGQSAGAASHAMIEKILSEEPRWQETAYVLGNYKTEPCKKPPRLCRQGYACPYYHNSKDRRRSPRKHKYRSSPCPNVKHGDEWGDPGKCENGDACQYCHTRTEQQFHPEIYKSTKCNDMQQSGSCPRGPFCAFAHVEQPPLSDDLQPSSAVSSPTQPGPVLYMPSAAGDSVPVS"}
{"Strand": "AGCUUUGCUGAGCCAUCAAGGUCUAAUGGAAGCAUGGUUCGGCAUUCUUCAUCUCCAUAUGCCGUAUAUCCUUCGGAUAAGCCUUUCCUUAAUAGUGAUCUACGACGCUCCCCAAGUAAG", "bound/input enrichment": "0.372 ratio"}
{"Strand": "UGAAAAAGCCUUGAAUAUGCAUGCUGCUUUCAUUUUUAUAAACUUUUUAUUUUUUAACUACCGCUUUAUUAGUAAUUCCAAAAUGCUGCAAUGUAGCUGAUUUCCUCACUCAGACAGCUG", "bound/input enrichment": "23.1 ratio"}
{"Strand": "AGCAAAAGAGCCAAGCAGUAGCAAUGUUUGUUUUUUUUUUUUUUUGUAAAUGUAAAAAUAAUCCGCUCUAGACCUGUUUCCUUUGAUUUAAAAAUAAAGAAUGCCUCAGUGCUGCUCUCA", "bound/input enrichment": "0.319 ratio"}
{"Strand": "UUGCGCCAGAGAACAGAAAACAUAGAUAUAAAAAAAUACUGUGUACAUUAUCUUGAGGAUGCCGGUUCUUUUGAAUACACUCGUAAUACCCUUAAAGAGCUUGAAGCUAAAGCCUAUAAA", "bound/input enrichment": "0.589 ratio"}
{"Strand": "UUACUUACUUAAUUUCUGGAGUUCGGGCCUCUGGGAUAGGCCCCAGACUGGGCCGGAAUGUCCGUGAAGGUUUUAUUGUGCCCGGUUGGAGGAUAAUGUUCUUUGUGUACUUUUUGUGGG", "bound/input enrichment": "0.308 ratio"}
{"Strand": "GGCUAGCCCCAGACCCAAAGAAUAAGAGAUAGCGAAGUUACUACAGACGUGGUCAGGGACAUCCGAAGGAGGCAGACUGCUACAGUCAGAGGCCAGGCAGUACAUCUCAGAGACAAGCUG", "bound/input enrichment": "0.34 ratio"}
{"Strand": "UGACUGUUGCAGGGUGGGUGGUUUCCAAACGAGUCUAAGUUAUGAGUGCCCAGACUUCCCCCGCAGAGAAGGGCCUAAAUCCGGGGCUCAUGUGCCAGGAGAGUUAUGCAUGCAGUGGGA", "bound/input enrichment": "0.244 ratio"}
{"Strand": "CUUGCAGUGAGGAAAAGAACAAUUAUUGCUCUUGGCCACCUAGUUAUGAGCUGCGGAAAUACCGUUUUUGUAGACCUUAUUGAACAUCUGUUGUCAGAGUUGUCCAAAAAUGACUCCAUG", "bound/input enrichment": "0.297 ratio"}
{"data": "Further values, each from its own experiment"}
{"Molecule": "SF3B1 (Homo sapiens, UniProt O75533)", "tested on": "SPRTN (Homo sapiens, UniProt Q9H040)", "assay": "cross-linking MS", "system": "cell fractions", "setting": "added: DSSO", "endpoint": "cross-linked residues", "value": "K175 to T263"}
{"Molecule": "COc1cc2ncnc(Nc3ccc(Oc4ccccc4)cc3)c2cc1OC", "tested on": "STK25 (Homo sapiens, UniProt O00506)", "assay": "enzyme activity, inhibitor", "setting": "0.5 µM", "how to read": "relative to: control", "endpoint": "remaining activity", "value": "109%"}
{"Molecule": "NPBWR2 (Homo sapiens, UniProt P48146)", "tested on": "ANK3 (Homo sapiens, UniProt Q12955)", "assay": "cross-linking MS", "system": "cell fractions", "setting": "added: DMTMM", "endpoint": "cross-linked residues", "value": "K249 to D2575"}
{"note": "A few entries again (sample 2):"}
{"Strand": "AGCUUUGCUGAGCCAUCAAGGUCUAAUGGAAGCAUGGUUCGGCAUUCUUCAUCUCCAUAUGCCGUAUAUCCUUCGGAUAAGCCUUUCCUUAAUAGUGAUCUACGACGCUCCCCAAGUAAG", "bound/input enrichment": "0.372 ratio"}
